Assay results pooled from the literature.
A part holds a random share of what one study measured.

Series 1 — technique: RNA Bind-n-Seq; form: RNA; sample: in vitro; concentration: 365 nM; relative to: no-protein control; direction: higher = stronger binding
Target: RNA binding protein fox-1 homolog 2, RRM domain, GST-SBP tag (RBFOX2, Homo sapiens, UniProt O43251-10, residues 100-194)
Notes: natural RNA segment, single round, ends assumed
Shared flanks, not repeated: GGGAGUUCUACAGUCCGACGAUC … UGGAAUUCUCGGGUGCCAA
Strand	RBNS enrichment (R)
CCCAGAACUCUUUUGCUGGUCAGAGAUUCCCUGAGUGUCUGUCCUCACCCAAGCCUGCUCUGUGUCUGUGUUGUGAAGCUUGAGACUCUGGAAAGAAAUGGGGAGGGGGG	0.834
UGUCACUCCCAGACCACCUCCCUGCCCUGUCCUCCAGCUUCCCCUCGCUGUCCUGCUGUGUGAAUUCCCAGGUUGGCCUGGUGGCCAUGUCGCCUGCCCCCAGCACUCCU	0.797
GUUGUGUGGUACACCUGGCAUGGGUGGUGGUAUUCCUUGAAAUCUGUGGUUAUGAAAAUUAGGCCAAGUGAUUUUAUUCCAAAUAUUAUUUAGUUGCCCUCAUUGGGAUC	2.02
UUAAAGUGCUACUUGAAAGCACAGGCUAGACAGAAAGCACAAGGAACCUAGGGGGUUGAUACAAUGUUACUGUAAUUGUGUGGGUGGGUGUCAUCCUUUGUGACAUUGUU	0.826
UCUCUUAACAGUUAAACAAGCUGUUUACAGUUUAAACUGCUGAAUAUUAUUUGAGCUAUUUAAAGCUUAUUAUAUUUUAGUAUGAACUAAAUGAAGGUUAAAACAUGCUU	0.379
AACCCUAUGAAGAGUAACAGUGUAGACCAGACUGCCUCUCUCAGAUAUGUGCCUGAUAUUUUGUGGAUACCUCCCCUGCACUGGCAAAACACUAUGCUUUUGGGUGUUAG	0.46
ACGGAUGCCUGCCACCGCCGGGGCAGGGCCAGAUGCCGAUGCUGGGUGUCCAGACUCAGAAGGCUUGAUCUGGGUUCCCUGUAAAGAGAGAGUGAAUUUCAGUAUACAGA	0.686
UUUUAUCUUGUGGUUAGGGCUAGAAGUAAUGCUUCUAUUUGGGUUUUUACGCUAGAAGCUAGGCGGAAGUGAGUGGGCGGGGAUAUGCAAAUAACUAUCUCACAUAGCGC	0.585

Series 2 — technique: universal PBM; form: double-stranded DNA, one strand shown; sample: in vitro; concentration: not given; direction: higher = stronger binding
Target: Sal-like protein 4, full length isoform B (SALL4, Homo sapiens, UniProt Q9UJQ4-2, residues 1-616)
Notes: 8-mer, flanks averaged, mean of replicates
Strand	E-score
CGCCACTA	-0.062
GAATCAGA	-0.0108
CCTTTAAC	0.099
CTCGACAC	-0.194
GTTCCCCA	-0.155
CGTTAGAC	0.00399
GCCTCCAA	-0.136
AGGAAATG	0.0422
AACTTACA	0.198
ACTAGATA	0.288
ATCACAGG	-0.0679
AAGTGGAC	-0.0886
AAGGTTTG	0.0325
ATTCGCTC	0.0505
TACAGGCA	0.0793
CATAAAGC	0.0881
ACCGGTTG	-0.266
AATTACAA	0.345
ATAGGCCA	-0.019
ATGCTTAC	0.0752
ATGTCACC	-0.0223
TCTATAGA	0.156
AGTCACAC	0.00872
CTGCCTCA	-0.167
TCTACTAA	0.229

Series 3 — technique: competition protein-binding microarray; form: double-stranded DNA, one strand shown; sample: in vitro; concentration: 2 µM; added: Pho4 competitor, 0.05 µM; direction: higher = stronger binding; shared flanks, not repeated: … GTCTTGATTCGCTTGACGCTGCTG
Target: Centromere-binding protein 1, full length, His-tagged (CBF1, Saccharomyces cerevisiae, UniProt P17106, residues 1-351)
UniProt P17106, sequence (whole entry, looked up): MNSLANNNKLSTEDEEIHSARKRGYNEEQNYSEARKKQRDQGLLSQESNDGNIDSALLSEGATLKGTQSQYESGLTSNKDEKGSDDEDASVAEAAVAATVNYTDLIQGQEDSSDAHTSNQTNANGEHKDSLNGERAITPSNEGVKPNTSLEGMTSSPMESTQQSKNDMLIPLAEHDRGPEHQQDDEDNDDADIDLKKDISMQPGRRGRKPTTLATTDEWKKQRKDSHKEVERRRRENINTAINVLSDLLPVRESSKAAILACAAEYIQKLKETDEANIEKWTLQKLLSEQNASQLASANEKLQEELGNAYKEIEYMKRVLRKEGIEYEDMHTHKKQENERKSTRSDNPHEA
Notes: whole 60-bp probe, lowest competitor level
Strand	fluorescence intensity [a.u.]
GAATCGCAAGATACCCACGATGAGACTGTTCAGGTT	62.2
CGTCCTAGTGATTGTTAGGTGGGTGCCATGAGGAAG	77.8
GTGAACTACAACAAAAAGAGAAGGCTGGTAAGGGCA	69.4
AACTGAGGTTTTCGTCACATGTACCGCCCTTTCTTC	593
AAGATTACACTCGCGAACGTGCGATCGGGATGATAC	85
CATACCCAACCTTGAACTGTGGGTGAAGATATTTGT	63.2
CTTCTGTAAATTTGATGAGTGGGTGGACGCGCCCCG	68.8
CTTCTGTAAATTTGGCAGGTGGGTGGACGCGCCCCG	80.4
AATTTGATAATTTGGCATGTGCGATCTCTTCGAAAA	120
CTAAAAGTGCATTACGACCTGCATCTCCAGTAGTTT	66.1
CCCCTGTGCGGCTACGTCGTGCCGACCCACCATTTG	61.9
CTTCTGTAAATTTGTCACATCACTTGACGCGCCCCG	111
AAATTACTAAGTTGAATTGTGGGTGACGCCGTATGA	65
AAATTACTAAGTTTTCACGTGGAATACCCCGTATGA	428
ACAGAATATCCCGACCACATGGCAAGACCAAGAAAG	151
CGCAGGGAGCCTGGCCACATGGGAGGGGTGTGGTCC	62.1
TGCGCAACAACTTGTGCGGTGGGTGTATGTCTAGAA	76.6

Series 4 — technique: protein binding microarray; form: double-stranded DNA, one strand shown; sample: in vitro; concentration: not given; relative to: not given; direction: higher = stronger binding
Target: Histone acetyltransferase KAT6A, winged helix 2, GST fusion (KAT6A, Homo sapiens, UniProt Q92794, residues 85-181)
Notes: 8-mer, flanks averaged, mean of 2 arrays, mostly near background
Target sequence (chain): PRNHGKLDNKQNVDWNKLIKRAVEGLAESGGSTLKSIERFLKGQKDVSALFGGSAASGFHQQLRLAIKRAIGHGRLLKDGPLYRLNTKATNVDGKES
Strand	E-score
CACTCGTA	-0.0563
ACGCCCGG	0.234
AAAATCTC	-0.196
CGACCGGA	-0.00105
ATTGGCCG	-0.071
CTTGGAGC	0.0238
ACGCCCTG	0.113
GCATGCCA	0.0204
ATCTGGAG	0.0528
TGGGGGAA	-0.127
CACGTATA	-0.239
ATCCCACG	-0.00839
CGGAGCGC	0.236
AACTGCGG	0.0826
GAGCAAGA	0.125
GCAGACTA	0.0543
AGCTGGTA	-0.124
ACAACCAA	-0.0535
CGGCTGTC	0.0269
AGTCCACG	-0.127
CAATCGAC	-0.204
CGCTTCAC	0.0799
CGACTAGA	-0.051
GATAGGAC	-0.171
AATTGGCG	-0.0748
